Measurements gathered from unrelated publications.
Lines come from different studies, so protocols differ. Several values in a cell are separate wells, animals, samples, runs or records.

COc1ccc(-c2nc(N3CCOCC3)c3sc(CN(C)c4ncc(C(=O)NO)cn4)cc3n2)cn1
inhibition (NLRP3 inflammasome (mouse); mouse BMDM; 10 µM): 12.9%

Cc1ccc(Nc2nccc(N(C)c3ccc4c(C)n(C)nc4c3)n2)cc1S(N)(=O)=O
inhibition (MAPK1 (human); kinase activity, inhibitor; 0.3 µM): -2%

O=C(CO)[C@@H](O)[C@H](O)[C@H](O)[C@H](O)COP(=O)(O)O
z-scored log2 fold change (binding, equilibrium dialysis LC-MS; 5 µM, thermostabilized A2AR-BRIL construct; baseline: no-protein control, direction not given): 0.173

Clc1ccc(Nc2nnc(Cc3ccncc3)c3ccccc23)cc1
inhibition (NLRP3 inflammasome (mouse); mouse BMDM; 10 µM): 89%

C#Cc1cc(-c2cc(Nc3nc(N[C@@H](C)c4ccc(F)cn4)ncc3Cl)n[nH]2)ccc1C=O
inhibition (CCDC6-RET kinase fusion, human; kinase activity, inhibitor; 0.2 µM): 76% and 75.2%

N=C(NCCCSC[C@H]1O[C@@H](n2cnc3c(NCCCc4ccccc4)ncnc32)[C@H](O)[C@@H]1O)NCCc1ccccc1
inhibition (CamA DNA adenine methyltransferase (Clostridioides difficile); enzyme activity, inhibitor, MTase-Glo luminescence (SAH); 10 µM, 3 min, pH 7.5, 22 °C, added: SAM 40 µM): < 10%

Nc1nc2c(ncn2[C@@H]2O[C@@H]3COP(=O)(O)O[C@H]3[C@H]2O)c(=O)[nH]1
z-scored log2 fold change (binding, equilibrium dialysis LC-MS; 5 µM, thermostabilized A2AR-BRIL construct; baseline: no-protein control, direction not given): 0.777

N=C(NCCCSC[C@H]1O[C@@H](n2cnc3c(NCCCc4ccccc4)ncnc32)[C@H](O)[C@@H]1O)NC1CCCC1
inhibition (CamA DNA adenine methyltransferase (Clostridioides difficile); enzyme activity, inhibitor, MTase-Glo luminescence (SAH); 10 µM, 3 min, pH 7.5, 22 °C, added: SAM 40 µM): < 10%

CCCc1cc(C)[nH]c(=O)c1CNC(=O)c1cc(-c2ccc(N3CCN(C(C)C)CC3)nc2)cc2c1cnn2C(C)C
inhibition (panel of 50 kinases; enzyme activity, inhibitor; 10000 nM): ≤ 20%

N#Cc1ccc(COc2cccc(C3CCN(Cc4nc5ccc(C(=O)O)cc5n4C[C@@H]4CCO4)CC3)n2)c(F)c1
inhibition (chloride channel; 10 µM): 80%

Cc1cnc(NC(=O)Nc2cc(Br)c(C)cc2OC[C@@H]2CNCCO2)cn1
inhibition (NLRP3 inflammasome (mouse); mouse BMDM; 10 µM): 24.1%

CCN(CC)CCNC(=O)c1c(C)[nH]c(/C=C2\C(=O)Nc3ccc(F)cc32)c1C
inhibition (MAPK1 (human); kinase activity, inhibitor; 10 µM): 3%

CC(C)n1nc(-c2ccc3oc(N)nc3c2)c2c(N)ncnc21
inhibition (NLRP3 inflammasome (mouse); mouse BMDM; 10 µM): 7.46%

N=C(NCCCSC[C@H]1O[C@@H](n2cnc3c(NCCCc4ccccc4)ncnc32)[C@H](O)[C@@H]1O)NCc1ccccc1
inhibition (CamA DNA adenine methyltransferase (Clostridioides difficile); enzyme activity, inhibitor, MTase-Glo luminescence (SAH); 10 µM, 3 min, pH 7.5, 22 °C, added: SAM 40 µM): < 10%
